Experimental data collected from several papers.
Lines come from different studies, so protocols differ. ± gives the spread as reported.

SMILES | assay | test system | conditions | how to read | endpoint | result
CN(C)CCN(Cc1ccccc1)C(=O)c1cc(-c2ccc(F)cc2)n2nc(C(C)(C)C)cc2n1 |  | Tg6799 mouse, cortex | dose not given, 4 months | baseline: cortex | CAA area | 0.025 ± 0.006%
CSCC[C@H](NC(=O)CNC(=O)[C@H](CC(=O)O)NC(=O)[C@@H](NC(=O)[C@@H](NC(=O)[C@@H](NC(=O)CNC(=O)[C@H](CCC(N)=O)NC(=O)[C@H](CCSC)NC(=O)[C@H](CC(=O)O)NC(=O)[C@H](C)NC(=O)[C@H](C)NC(=O)[C@@H](NC(=O)[C@H](CO)NC(=O)[C@@H](N)CC(C)C)[C@@H](C)O)C(C)C)C(C)C)[C@@H](C)O)C(=O)N[C@@H](C)C(=O)N[C@@H](CO)C(=O)NCC(=O)N[C@@H](CC(C)C)C(=O)N[C@@H](CC(=O)O)C(=O)N[C@@H](CCCCN)C(=O)N[C@@H](CC(=O)O)C(=O)N[C@@H](Cc1ccc(O)cc1)C(=O)N[C@@H](CC(C)C)C(=O)N[C@@H](CCCCN)C(=O)N1CCC[C@H]1C(=O)N[C@@H](CC(=O)O)C(=O)N[C@@H](CC(=O)O)C(=O)O |  | human | dose not given |  | complete response duration | 139 weeks
C[C@@H](O)[C@H](NC(=O)[C@@H]1CSSC[C@H](NC(=O)[C@@H](Cc2ccccc2)NC(=O)CN2CCN(CC(N)=O)CCN(CC(N)=O)CCN(CC(N)=O)CC2)C(=O)N[C@@H](Cc2ccc(O)cc2)C(=O)N[C@H](Cc2c[nH]c3ccccc23)C(=O)N[C@@H](CCCCN)C(=O)N[C@@H]([C@@H](C)O)C(=O)N1)C(=O)O [lead-212 labelled] |  | mice, AR-42J tumour model | single injection of 10 µCi |  | median survival | 8.5 weeks
Cc1cc(O)cc(C)c1CC(N)C(=O)NC1CCNc2c1cc(Cc1ccccc1)cc2C(C)(C)C (centres unmarked) | warm water tail withdrawal | male C57BL/6 mouse | ip, 10 mg/kg, 50 °C, cutoff 20 s |  | tail withdrawal latency | 10 s
CC[C@H](C)[C@H](NC(=O)[C@H](C)NC(=O)CNC(=O)[C@@H](N)CCSC)C(=O)N[C@@H](C)C(=O)N[C@@H](CCCCN)C(=O)N[C@@H](CC(C)C)C(=O)N[C@H](C(=O)N[C@@H](C)C(=O)N[C@@H](CCCCN)C(=O)N[C@@H](Cc1ccccc1)C(=O)NCC(=O)N[C@@H](Cc1c[nH]c2ccccc12)C(=O)N1CCC[C@H]1C(=O)N[C@@H](Cc1ccccc1)C(=O)N[C@H](C(=O)N[C@@H](CCCCN)C(=O)N[C@@H](CCCCN)C(=O)N[C@@H](Cc1ccccc1)C(=O)N[C@@H](Cc1ccc(O)cc1)C(=O)N[C@@H](CCCCN)C(=O)N[C@@H](CCC(N)=O)C(=O)N[C@@H](CCCNC(=N)N)C(=O)N[C@@H](CCSC)C(=O)N[C@@H](CCC(N)=O)C(=O)N[C@@H](Cc1ccccc1)C(=O)N[C@H](C(=O)NCC(=O)N[C@@H](CCC(N)=O)C(=O)NCC(=O)N[C@@H](Cc1c[nH]c2ccccc12)C(=O)N[C@H](C(=O)N[C@H](C(=O)N[C@@H](CC(=O)O)C(=O)N[C@@H](CCC(N)=O)C(=O)N[C@H](C(=O)N[C@@H](CCC(=O)O)C(=O)N[C@@H](CCCCN)C(=O)N[C@@H](Cc1c[nH]c2ccccc12)C(=O)N[C@@H](CC(C)C)C(=O)N[C@@H](CCCCN)C(=O)N[C@@H](CCCNC(=N)N)C(=O)N[C@@H](Cc1c[nH]cn1)C(=O)O)[C@@H](C)CC)[C@@H](C)CC)[C@@H](C)O)[C@@H](C)CC)[C@@H](C)CC)C(C)C |  | PG/PE 1:1 liposomes | MIC | baseline: Triton X-100 | calcein release | 24.5 ± 1%
CC1(O)CC23CC(O)C4(O)C(C5OC5C4(C)C)C(C)(O)C2CCC1C3O (centres unmarked) | formalin phase II | mouse formalin test | oral, 0.10 mg/kg, 0.25 h | baseline: saline | licking time | active
Cc1ccc(/C=C/C(=O)O)cc1-c1cc2c(cc1C)C(C)(C)CCC2(C)C | RNA sequencing, measured: Mta2 | rat, brain | dose not given, 24 h | baseline: vehicle | log2 fold change | -0.1
Cc1cc(O)c(I)c(C)c1C[C@H](N)C(=O)N[C@H](C)C(=O)N[C@@H](Cc1ccccc1)C(=O)N[C@@H](Cc1ccccc1)C(N)=O | tail flick | C57BL/6 mice | intracerebroventricular |  | analgesic ED50 | 1.15 µg
Cc1cc(O)cc(C)c1CC(N)C(=O)NC1CCNc2c(C(=O)NCc3ccccc3)cc(Cc3ccccc3)cc21 (centres unmarked) | warm water tail withdrawal | male C57BL/6 mice | intraperitoneal, 10 mg/kg |  | antinociception | inactive
O=C(O)CCn1c(=O)oc2cc(Cl)c(Cl)cc21 |  | rat, acute pancreatitis, serum | dose not given, 6 h |  | urea level | 10.7 ± 0.8 mmol/L
C[C@]12CC[C@H](O)CC1CCC1C2[C@H](O)C(=O)[C@]2(C)[C@@H](c3ccc(=O)oc3)CC[C@]12O (some centres unmarked) | sulfation, substrate | pooled human liver cytosol |  |  | Vmax | 0.069 ± 0.001 nmol/min/mg
CCN(Cc1ccccc1)C(=O)CCc1nc(CN2CCN(C(=O)Cc3ccc(OC)c(OC)c3)CC2)no1 | current clamp | L4-L6 DRG neurons, rat CCI model | 10 µM, together with: 500 pA current injection |  | action potential threshold | -4.3 ± 2.88 mV
CC[C@H](C)[C@H](NC(=O)[C@H](CCCNC(=N)N)NC(=O)[C@H](CCC(N)=O)NC(=O)[C@H](CC(=O)O)NC(=O)[C@H](CC(C)C)NC(=O)[C@H](CC(C)C)NC(=O)[C@H](CC(N)=O)NC(=O)[C@H](Cc1ccccc1)NC(=O)[C@H](CC(=O)O)NC(=O)[C@@H](NC(=O)[C@@H](NC(=O)[C@H](CC(N)=O)NC(=O)CNC(=O)[C@H](CO)NC(C)=O)C(C)C)[C@@H](C)CC)C(=O)N[C@H](C(=O)N[C@@H](Cc1c[nH]c2ccccc12)C(=O)N[C@@H](CCC(N)=O)C(=O)N[C@@H](CC(N)=O)C(=O)N[C@@H](Cc1c[nH]c2ccccc12)C(=O)N[C@@H](Cc1ccc(O)cc1)C(=O)N[C@@H](C)C(N)=O)[C@@H](C)CC | measured: HA-19 tetramer | antigen-experienced tetramer+ CD4 T cells, healthy adults, HLA-DRB1*0101 | dose not given |  | α4β7− CCR9− cells | 61.5%
COC[C@@H](NC(C)=O)C(=O)NCc1ccc(OCc2cccc(OC(F)(F)F)c2)cc1 | formalin test, phase II | mouse | ip, 12 mg/kg | baseline: vehicle | licking time | 98%
CC[C@H](C)[C@H](NC(=O)[C@H](Cc1c[nH]c2ccccc12)NC(=O)[C@H](CCCNC(=N)N)NC(=O)[C@H](CCCCN)NC(=O)[C@H](CC(C)C)NC(=O)[C@H](CC(=O)O)NC(=O)[C@H](Cc1ccccc1)NC(=O)[C@H](C)NC(=O)[C@H](Cc1ccc(O)cc1)NC(=O)[C@H](CC(N)=O)NC(=O)[C@H](Cc1ccc(O)cc1)NC(=O)[C@H](CCCNC(=N)N)NC(=O)[C@H](Cc1ccc(O)cc1)NC(=O)[C@H](Cc1ccc(O)cc1)NC(=O)[C@@H](NC(=O)[C@H](CC(C)C)NC(=O)[C@H](C)NC(=O)[C@H](CC(N)=O)NC(=O)[C@H](Cc1ccc(O)cc1)NC(C)=O)[C@@H](C)CC)C(=O)N[C@@H](Cc1ccc(O)cc1)C(=O)N[C@@H](CC(C)C)C(N)=O | measured: HA-15 tetramer | antigen-experienced tetramer+ CD4 T cells, healthy adults, HLA-DRB1*0101 | dose not given |  | α4β7− CCR9− cells | 50%
CC(C)C[C@@H]1NC(=O)[C@H](C(C)C)NC(=O)[C@H](CO)NC(=O)CNC(=O)CNC(=O)[C@H](CCCNC(=N)N)NC(=O)[C@@H]2CCCN2C(=O)[C@@H](NC(=O)CC[C@H](NC(=O)c2ccc(N(C)Cc3cnc4nc(N)nc(N)c4n3)cc2)C(=O)O)C(C)(C)SSC[C@@H](C(=O)O)NC(=O)CNC(=O)[C@H]([C@@H](C)O)NC(=O)[C@H](C(C)C)NC1=O |  | rat adjuvant arthritis | iv, 0.2 mg/kg once daily, day 14 |  | spleen weight | 0.482 ± 0.0248 g
COc1cc(C(Oc2ccc(C[C@H](N)C(=O)N[C@H](C)C(=O)NCC(=O)N(C)[C@@H](Cc3ccccc3)C(=O)NCCO)cc2)C(=O)O)c([N+](=O)[O-])cc1OC (some centres unmarked) |  | mouse formalin pain model | intra-NAc infusion, 0.5 µL, 200 µM, together with: 375 nm light uncaging |  | duration of paw-attending decrease | 10 to 20 min
CC(C)C[C@@H]1NC(=O)[C@@H](Cc2c[nH]c3ccccc23)NC(=O)[C@H](CCCCN)NC(=O)[C@@H](Cc2c[nH]cn2)NC(=O)[C@H](CO)NC(=O)[C@@H](Cc2c[nH]cn2)NC(=O)[C@H](CCCCN)NC(=O)[C@@H](Cc2c[nH]c3ccccc23)NC1=O | ELISA | human plasma | concentration not given |  | pre-beta HDL concentration | 68 ± 5 µg/mL
COC[C@@H](NC(C)=O)C(=O)NCc1ccc(OCc2cccc(F)c2)cc1 | formalin test, phase I | mouse | ip, 9.0 mg/kg | baseline: vehicle | licking time | 39%
CC[C@H](C)[C@H](NC(=O)[C@@H](NC(=O)[C@H](CC(=O)O)NC(C)=O)[C@@H](C)O)C(=O)N[C@@H](CCCNC(=N)N)C(=O)N[C@@H](CC(C)C)C(=O)N[C@@H](CC(C)C)C(=O)N[C@@H](Cc1ccccc1)C(=O)N[C@@H](CCC(N)=O)C(=O)N[C@@H](CC(C)C)C(=O)N[C@@H](CCSC)C(=O)N[C@@H](CCCNC(=N)N)C(=O)N1CCC[C@H]1C(=O)N1CCC[C@H]1C(=O)N[C@@H](CC(N)=O)C(=O)N[C@@H](CCSC)C(=O)N[C@H](C(=O)N1CCC[C@H]1C(=O)N[C@@H](C)C(=O)N[C@H](C(=O)N[C@@H](CC(N)=O)C(=O)N[C@@H](C)C(N)=O)C(C)C)[C@@H](C)O | measured: HA-52 tetramer | antigen-experienced tetramer+ CD4 T cells, healthy adults, HLA-DRB1*0101 | dose not given |  | α4β7− CCR9− cells | 43.7%

Excerpt of the above:
SMILES | assay | test system | conditions | how to read | endpoint | result
Cc1cc(O)cc(C)c1CC(N)C(=O)NC1CCNc2c(C(=O)NCc3ccccc3)cc(Cc3ccccc3)cc21 (centres unmarked) | warm water tail withdrawal | male C57BL/6 mice | intraperitoneal, 10 mg/kg |  | antinociception | inactive
CSCC[C@H](NC(=O)CNC(=O)[C@H](CC(=O)O)NC(=O)[C@@H](NC(=O)[C@@H](NC(=O)[C@@H](NC(=O)CNC(=O)[C@H](CCC(N)=O)NC(=O)[C@H](CCSC)NC(=O)[C@H](CC(=O)O)NC(=O)[C@H](C)NC(=O)[C@H](C)NC(=O)[C@@H](NC(=O)[C@H](CO)NC(=O)[C@@H](N)CC(C)C)[C@@H](C)O)C(C)C)C(C)C)[C@@H](C)O)C(=O)N[C@@H](C)C(=O)N[C@@H](CO)C(=O)NCC(=O)N[C@@H](CC(C)C)C(=O)N[C@@H](CC(=O)O)C(=O)N[C@@H](CCCCN)C(=O)N[C@@H](CC(=O)O)C(=O)N[C@@H](Cc1ccc(O)cc1)C(=O)N[C@@H](CC(C)C)C(=O)N[C@@H](CCCCN)C(=O)N1CCC[C@H]1C(=O)N[C@@H](CC(=O)O)C(=O)N[C@@H](CC(=O)O)C(=O)O |  | human | dose not given |  | complete response duration | 139 weeks
